Published values from different studies.
Every numbered part comes from another study and shows a few of its results, in no order. Positions count from the first letter of the parent shown.

Series 1
Target: UDP-N-acetylglucosamine--peptide N-acetylglucosaminyltransferase 110 kDa subunit (OGT, Homo sapiens, UniProt O15294)
Observed: binding
Technique: phage display NGS
Form: peptide
Tested at: concentration not given
Relative to: input library
Measurement: enrichment fold change
Target sequence (O15294 1-1046): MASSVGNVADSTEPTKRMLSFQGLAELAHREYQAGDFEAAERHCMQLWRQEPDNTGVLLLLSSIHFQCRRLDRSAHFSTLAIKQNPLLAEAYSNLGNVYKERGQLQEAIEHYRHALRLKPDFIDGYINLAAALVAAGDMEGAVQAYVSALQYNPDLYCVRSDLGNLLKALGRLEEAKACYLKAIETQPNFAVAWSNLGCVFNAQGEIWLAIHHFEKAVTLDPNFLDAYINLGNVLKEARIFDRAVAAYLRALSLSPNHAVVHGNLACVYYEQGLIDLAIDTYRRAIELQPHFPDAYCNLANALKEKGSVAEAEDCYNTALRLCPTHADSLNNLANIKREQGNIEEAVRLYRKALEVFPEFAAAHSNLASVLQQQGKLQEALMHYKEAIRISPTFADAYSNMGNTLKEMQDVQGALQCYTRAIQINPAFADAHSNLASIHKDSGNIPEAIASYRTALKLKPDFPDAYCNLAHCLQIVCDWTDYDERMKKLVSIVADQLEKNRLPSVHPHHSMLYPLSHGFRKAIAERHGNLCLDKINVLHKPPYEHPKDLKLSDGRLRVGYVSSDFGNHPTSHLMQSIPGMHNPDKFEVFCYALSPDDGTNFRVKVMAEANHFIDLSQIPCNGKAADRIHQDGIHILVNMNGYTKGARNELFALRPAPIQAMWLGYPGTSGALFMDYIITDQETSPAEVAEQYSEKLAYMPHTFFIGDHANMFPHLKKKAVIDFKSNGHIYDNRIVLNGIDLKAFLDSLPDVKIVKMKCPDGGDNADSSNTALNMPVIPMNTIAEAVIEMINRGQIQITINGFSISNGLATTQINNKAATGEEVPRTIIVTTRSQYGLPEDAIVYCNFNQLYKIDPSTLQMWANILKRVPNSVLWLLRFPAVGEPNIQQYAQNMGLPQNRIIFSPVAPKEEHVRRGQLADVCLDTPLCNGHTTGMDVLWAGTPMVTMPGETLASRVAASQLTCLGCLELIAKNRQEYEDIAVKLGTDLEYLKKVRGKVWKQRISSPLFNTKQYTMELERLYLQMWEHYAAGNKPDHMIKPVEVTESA
DNVYPMYQMTYKAID: 2.28
RYYEPVYQIVATNSN: 6.31
HDVAMAKLHHQQFDY: 2.38

Series 2
Target: POU, POU domain (Salpingoeca helianthica)
Technique: Spec-seq
Form: double-stranded DNA, one strand shown
Medium: in vitro
Tested at: not given
Notes: whole probe, mean of replicates
Relative to: not given
Direction: lower = stronger binding
Measurement: relative binding energy
All sequences stand within: GAGTCGTCTCGTCAGCAC … CCGTAGAGCACTCAGGTC
Construct (chain): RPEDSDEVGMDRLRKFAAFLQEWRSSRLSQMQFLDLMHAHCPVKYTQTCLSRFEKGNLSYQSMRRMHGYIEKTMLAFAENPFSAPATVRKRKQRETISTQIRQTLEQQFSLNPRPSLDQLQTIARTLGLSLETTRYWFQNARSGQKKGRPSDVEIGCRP
ATGCTGCA: 1.23 ln ratio
ATGCTTAG: 1.35 ln ratio
ATGCCCGG: 1.32 ln ratio
GACATAAT: 0.99 ln ratio
ATGCAACA: 0.927 ln ratio
ATGTTTAT: 0.115 ln ratio
TACCTAAT: 0.81 ln ratio
ATAGAGAT: 1.17 ln ratio

Series 3
Target: CCND1, cyclin fold, Cln2 fusion (human)
Technique: yeast growth competition, sequencing
Medium: yeast
Notes: weak parent motif
Relative to: not given
Direction: higher = stronger binding
Measurement: normalised enrichment score
Starting sequence: viral docking peptide; PGASRRLFGSSAD
PAASRRLFGSSAD [G2A]: 0.337
PGASKRLFGSSAD [R5K]: -0.0137
AGASRRLFGSSAD [P1A]: -0.191
PGASRRLFGSAAD [S11A]: 0.412
PGASARLFGSSAD [R5A]: 0.179
PGASRRLFASSAD [G9A]: 0.974

Series 4
Target: inorganic phosphate, free oxyanion
Technique: microfluidic competitive inhibition
Medium: in vitro, cell-free expressed
Tested at: not given
Notes: derived from inhibition constants, unchanged parent 615000 nM
Direction: lower = stronger binding
Measurement: phosphate dissociation constant
Starting sequence: PafA, mature enzyme, eGFP fusion (Elizabethkingia meningoseptica, UniProt Q9KJX5); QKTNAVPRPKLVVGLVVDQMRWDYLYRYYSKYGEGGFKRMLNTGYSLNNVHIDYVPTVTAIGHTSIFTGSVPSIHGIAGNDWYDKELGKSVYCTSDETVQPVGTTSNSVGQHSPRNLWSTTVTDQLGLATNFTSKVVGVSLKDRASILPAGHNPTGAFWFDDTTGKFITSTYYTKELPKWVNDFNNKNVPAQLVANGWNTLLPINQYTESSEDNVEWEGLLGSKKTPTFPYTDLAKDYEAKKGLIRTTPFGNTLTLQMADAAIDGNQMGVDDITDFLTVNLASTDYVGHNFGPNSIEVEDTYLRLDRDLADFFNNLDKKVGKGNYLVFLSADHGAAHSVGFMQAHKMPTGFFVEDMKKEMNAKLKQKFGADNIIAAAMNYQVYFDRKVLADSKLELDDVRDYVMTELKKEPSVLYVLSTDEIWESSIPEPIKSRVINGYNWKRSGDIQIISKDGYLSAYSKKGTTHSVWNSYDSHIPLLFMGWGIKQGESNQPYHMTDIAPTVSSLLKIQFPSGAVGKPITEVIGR
I431V: 565 µM
S451V: 606 µM
S119V: 591 µM

Repeated from above (series 2):
ATGCCCGG: 1.32 ln ratio
GACATAAT: 0.99 ln ratio
ATGCAACA: 0.927 ln ratio
